Results from different studies.
Every numbered part comes from another study and shows a few of its results, in no order.

Block 1
Target: Interferon regulatory factor 7, full length, phosphomimetic (IRF7, Homo sapiens, UniProt Q92985, residues 1-503, S471D/S472D/S475D/S476D/S477D/S483D/S484D/S487D)
Technique: protein-binding microarray
Molecule type: double-stranded DNA, one strand shown
Sample: in vitro
Tested at: 2200 nM top
Notes: 60-bp whole probe
With: salmon DNA 0.4 mg/ml
Reference: random background probes
Direction: higher = stronger binding
Shared flanks, not repeated: GCCTAGCAC … GTCTTGATTCGCTTGACGCTGCTG
Construct (chain): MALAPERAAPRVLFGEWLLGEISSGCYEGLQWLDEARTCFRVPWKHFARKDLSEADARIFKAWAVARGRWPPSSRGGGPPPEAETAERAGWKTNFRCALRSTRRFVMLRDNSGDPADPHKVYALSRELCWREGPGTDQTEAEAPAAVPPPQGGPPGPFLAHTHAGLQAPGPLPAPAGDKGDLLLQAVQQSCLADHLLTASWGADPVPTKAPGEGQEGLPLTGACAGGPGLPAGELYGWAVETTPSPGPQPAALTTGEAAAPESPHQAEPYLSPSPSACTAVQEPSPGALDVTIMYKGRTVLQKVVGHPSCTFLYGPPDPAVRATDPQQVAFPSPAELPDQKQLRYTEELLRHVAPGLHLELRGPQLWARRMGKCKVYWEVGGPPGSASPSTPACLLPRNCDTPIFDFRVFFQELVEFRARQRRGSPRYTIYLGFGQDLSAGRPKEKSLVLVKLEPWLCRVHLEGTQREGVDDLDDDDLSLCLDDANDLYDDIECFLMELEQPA
Oligonucleotide | fitted relative affinity [z-score]
TTAGAACTGAGTTTCGAATAGTGCTAG | 0.704
GACGATTTCAGTTCCCAGACGTGCTAG | 2.5
GACGGTCTCGGTCTCGGCACGTGCTAG | -0.14
GACGATTTCAGTTCCGAAACGTGCTAG | 1.94
GACAGTTTCCTACTGCTGACGTGCTAG | 1.9
CACTCTTGCTTTTTAGATCGGTGCTAG | 1.53
TCATTCTTGCATCTGGGACTGTGCTAG | 1.36
TTAGGACTGGACTTTCGGTTAGTGCTA | 4.89
TTACGTATCGGTATCGGTTAGTGCTAG | 2.19
TTAGGACTGCTTTACCTTTAGTGCTAG | 0.635
TTAGGTATCCTACTGTTTTAGTGCTAG | 0.665
CAGCACAGCTGACTACAAGCGTGCTAG | -0.138

Block 2
Target: Histone acetyltransferase KAT6A, both winged helices, GST fusion (KAT6A, Homo sapiens, UniProt Q92794, residues 1-181)
Technique: protein binding microarray
Molecule type: double-stranded DNA, one strand shown
Sample: in vitro
Tested at: not given
Notes: 8-mer, flanks averaged, mean of 2 arrays, mostly near background
Reference: not given
Direction: higher = stronger binding
Construct (chain): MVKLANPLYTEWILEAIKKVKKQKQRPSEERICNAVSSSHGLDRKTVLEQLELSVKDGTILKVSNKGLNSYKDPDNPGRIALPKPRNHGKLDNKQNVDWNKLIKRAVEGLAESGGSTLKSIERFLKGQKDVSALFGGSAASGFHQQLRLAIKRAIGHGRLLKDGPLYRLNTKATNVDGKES
Oligonucleotide | E-score
ACTGCAAG | -0.138
CCTGTCCC | -0.0844
GTGCATGA | -0.0192
CAGAGCTG | -0.109
ACGCCGAG | 0.196
ATCAATTC | -0.109
GTATCACA | 0.0303
ACTTCAAA | -0.206
CGCATATA | 0.145
CGAATTTA | 0.0268
AGTCCCAA | -0.265
CATGAACA | -0.0146

Block 3
Target: PABPC1L2, full length, GST fusion (mouse, UniProt A0ABA7IW68)
Technique: RNAcompete
Molecule type: RNA
Sample: in vitro
Tested at: 20 nM
Notes: 7-mer, probes averaged, single round
Reference: mean of 7-mers
Direction: higher = stronger binding
Oligonucleotide | 7-mer Z-score
GCAGAGA | 0.102
AGCAACC | 0.00979
GUGCAGC | -0.132
UGUAUGC | -0.235
AUCGGCU | 0.0152
UAGGAUA | -0.0319
AAAUUCG | 1.37
UUUCCCC | -0.418
UCCGCCU | -0.42
GCCAACU | -0.289
CUCCCAU | -0.338
GCAGUAA | 0.254
GAGAAUA | 0.282
CUCAUAA | -0.0446
UUAGUAG | -0.0573
AGCCCUG | -0.367
UGACGAG | 0.00436
GUAAAGU | 0.35

Block 4
Target: RING finger protein unkempt homolog, zinc fingers 1-6, GST-SBP tag (UNK, Homo sapiens, UniProt Q9C0B0, residues 30-357)
Technique: RNA Bind-n-Seq
Molecule type: RNA
Sample: in vitro
Tested at: not given
Notes: RNA with constant flanks, human and mouse sites, ends assumed
Reference: input RNA pool
Direction: higher = stronger binding
Construct (chain): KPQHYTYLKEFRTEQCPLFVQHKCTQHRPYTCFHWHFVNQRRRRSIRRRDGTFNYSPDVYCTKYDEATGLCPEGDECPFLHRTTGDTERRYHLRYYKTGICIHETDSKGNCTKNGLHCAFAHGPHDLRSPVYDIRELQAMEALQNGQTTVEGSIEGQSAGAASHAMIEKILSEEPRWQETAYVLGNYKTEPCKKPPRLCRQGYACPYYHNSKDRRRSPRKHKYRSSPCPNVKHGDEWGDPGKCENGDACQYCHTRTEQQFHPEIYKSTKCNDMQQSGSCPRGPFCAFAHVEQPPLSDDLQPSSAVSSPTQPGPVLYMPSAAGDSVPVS
Oligonucleotide | bound/input enrichment
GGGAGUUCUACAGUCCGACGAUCAUGAAUUCAUCUAAGAUCAUUCUUGAUUUUUUUAAAUCCUACACAUAAAUUGAAGCUUUAUGGUGUUGAAGUAAUCCAACACCUUAGUUACAUUUCAUUUUUGCUAAACUAUUCAAGUUGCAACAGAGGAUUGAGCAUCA | 0.272 ratio
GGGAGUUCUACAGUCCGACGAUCAGGGUGAUUUAUGAUGAGAAGAAAGGCACCGUGUACAGCUACUCCUAUUUCCACUUCGUCUUCUUCCUGGCUUCCCUCUACGUGAUGAUGACUCUGACCAGCUGGUUCCACUAUGAAAAUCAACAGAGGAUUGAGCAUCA | 0.312 ratio
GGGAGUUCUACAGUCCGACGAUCAGUGGUGGUGCCUAUCCCAACAUCCCCCUCUCUUCUCCCUUACCUGGAGUACCCAAGCCUGUUUUUGCUACAGUUGAUGGACAGGAAAAGUUUGAAACCAAAGUAACCACAUUGGAUAAUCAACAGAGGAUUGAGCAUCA | 0.404 ratio
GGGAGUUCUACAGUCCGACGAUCGUAGCUGGGACUACAGAAAUGCUGGUAAUUUCAGUCACUUGCUGAUGACUUCUGAUGUCCCAGCAAAUGUUGGCAUUGUUGACUGCUGAGAAGAUACUUCUGAGGACCCACGUCUAAGGUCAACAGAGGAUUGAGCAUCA | 0.0655 ratio
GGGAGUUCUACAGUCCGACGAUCAAGAGAAAGAAGGUUAAGCUGGCUGUCCUGAAAUAUUAUAAGGUGGAUGAGAAUGGCAAAAUUAGUCGCCUUCGUCGAGAGUGCCCUUCUGAUGAAUGUGGUGCUGGGGUGUUUAUGGCACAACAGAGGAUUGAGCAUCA | 0.663 ratio
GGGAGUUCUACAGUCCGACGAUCUGUUUAGAGAAUUAUGGGAAACCUGGUAAGCAAAACUUUCCUCCCAGAUAAUUGCUUCCAAAUUCGAAGAGUUAGUCACCAAGAGAGCCAUAUGUAUGAAAGCGUAUCUGUGAAAGGUAGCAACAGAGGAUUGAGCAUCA | 1.02 ratio

Some of these lines once more (block 2):
Oligonucleotide | E-score
CAGAGCTG | -0.109
ACGCCGAG | 0.196
ATCAATTC | -0.109
